Experimental data collected from several papers.
Lines come from different studies, so protocols differ. ± marks the error that the study gave.

CCCC[C@H](NC(=O)[C@H](CC(C)C)N(C)C(=O)CNC(=O)[C@@H](NC(=O)[C@H](Cc1ccc(O)cc1)NC(=O)[C@H](CCCCNC(=O)COCCOCCNC(=O)COCCOCCNC(=O)CC[C@H](NC(=O)CCCCCCCCCCCCCCCCC(=O)O)C(=O)O)NC(=O)[C@@H](N)CC(=O)O)C(C)C)C(N)=O
half-life (LC-MS; lean mouse, plasma; subcutaneous, 325 nmol/kg): 5.5 h

C/C(=N\OCCCN1CCCCC1)c1ccc(C(F)(F)F)cc1
half-life (C57BL/6 mouse; oral, 10 mg/kg): 4.27 ± 0.67 h

CCCCCCCC/C=C\CCCCCCCCOP(O)(O)=S.N
half-life (mouse, female, irradiated; sc, dose not given, 15.6 Gy partial-body, dosed 24 h after): 1.36 h

CC(C)(CCCC/C=C/CCCCCC(C)(C)C(=O)O)C(=O)O
half-life (allometric estimate from V/CL; mouse, plasma): 4.55 h

O=C[C@H](C[C@@H]1CCNC1=O)NC(=O)[C@H](Cc1cccc(F)c1)NC(=O)c1cc2ccccc2[nH]1
half-life (mouse; intravenous, 5 mg/kg): 1.65 h

CC(C)C[C@@H](/C=C/CC(=O)NC1CC(C)(C)N([O])C(C)(C)C1)NC(=O)OC(C)(C)C
half-life (C57BL/6NHsd mouse, female, lungs): 0.167 h

Cc1cccc2c1NC(=O)C2=Cc1ccc(-c2cccc(C(=O)N3CCCN(C)CC3)c2)o1 (mixture of isomers)
half-life (mouse; oral): 4.9 h

CC(C)C[C@@H]1NC(=O)[C@H](CCCNC(=N)N)NC(=O)[C@H](CCCCN)NC(=O)[C@H](CC(=O)O)NC(=O)[C@H](CCCCN)NC(=O)[C@@H](CO)NC1=O
half-life (mouse, serum; intraperitoneal, 10 µg/g): ~0.567 h

Cc1ccc(NS(=O)(=O)c2c(C(=O)N3CCCCCC3)c(C)n(C)c2C)c(Cl)c1
half-life (ICR mouse, male, plasma; oral, dose not given): 1.85 h

CCCCCCCCCCCCCCCC(=O)NCCCC[C@H](NC(=O)[C@H](CCCNC(=N)N)NC(=O)[C@H](Cc1ccc(O)cc1)NC(=O)[C@H](CC(C)C)NC(=O)[C@H](CCCNC(=N)N)NC(=O)CNS(=O)(=O)c1ccc(N)cc1)C(N)=O
half-life (ICR mouse, plasma; intraperitoneal, 4 mg/kg): 2.35 h

CN(C)CCN(Cc1ccccc1)C(=O)c1cc(-c2ccc(F)cc2)n2nc(C(C)(C)C)cc2n1
half-life (C57BL/6 x SJL mouse, wild type, brain; subcutaneous, 35 mg/kg): ~12.4 h

Some of these lines once more:
C/C(=N\OCCCN1CCCCC1)c1ccc(C(F)(F)F)cc1
half-life (C57BL/6 mouse; oral, 10 mg/kg): 4.27 ± 0.67 h
